{"data": "Published values gathered from unrelated publications", "IDE": "Insulin-degrading enzyme (IDE, Homo sapiens, UniProt P14735)", "note": "Compare with care: the assays were run in different laboratories. “And” joins repeats or separate records; there may be more than shown. Numbers after ± are the reported error."}
{"Compound": "OC[C@H]1O[C@@H](c2ccc(F)c(Cc3cc4ccccc4s3)c2)[C@H](O)[C@@H](O)[C@@H]1O", "system": "Japanese type 2 diabetes patients, plasma", "conditions": "oral, 50 mg/day, day 14", "endpoint": "renal clearance", "result": "2.15 ± 0.47 mL/min"}
{"Compound": "O=C(CCCCCCC(=O)Nc1ccc(CC[18F])cc1)NO", "system": "athymic nu/nu male mice, LNCaP xenograft, spleen", "conditions": "intravenous, 1 h", "endpoint": "tissue uptake", "result": "1.7 ± 0.4 %ID/g"}
{"Compound": "O.O.O.O.O.O.[Co+2]", "assay": "differential pulse voltammetry", "conditions": "aqua ion", "scale": "reference: NHE", "endpoint": "peak potential", "result": "1.82 V"}
{"Compound": "Cc1ccc(Sc2ccccc2N2CCNCC2)c(C)c1", "assay": "refers to: Thirst", "system": "healthy adult men", "conditions": "oral, 20 mg single dose, 10 day", "endpoint": "participants with TEAE", "result": "0%"}
{"Compound": "COc1ccnc(C(=O)NCC(=O)O)c1O", "assay": "aerobic dark soil incubation", "system": "clay soil", "conditions": "20 °C, persistence endpoint", "endpoint": "DT50", "result": "20.8 days"}
{"Compound": "CCc1nc(C(N)=O)c(Nc2ccc(N3CCC(N4CCN(C)CC4)CC3)c(OC)c2)nc1NC1CCOCC1", "system": "Japanese patients, plasma and urine", "conditions": "oral, 200 mg, cycle 1 day 28, multiple doses, median", "endpoint": "renal clearance", "result": "19.7 mL/min"}
{"Compound": "O=C(O)CSc1nnc(Br)n1-c1ccc(C2CC2)c2ccccc12", "system": "KM mouse, chronic hyperuricaemia model", "conditions": "dose not given, day 30", "endpoint": "body weight", "result": "43 g and 39.8 g and 38.6 g and 35.4 g and 36.8 g and 38.8 g"}
{"Compound": "O=C(O)CCC(=O)O.[2H]C([2H])([2H])Oc1cc(C)c2[nH]ccc2c1CN1CC[C@@H](C2CC2)C[C@H]1c1ccc(C(=O)O)cc1", "assay": "multiple ascending dose", "system": "healthy Chinese subjects", "conditions": "200 mg once daily", "endpoint": "subjects with elevated triglycerides TEAE", "result": "25%"}
{"Compound": "CCCC(CCC)NC(=O)c1ccc2c(c1)OCO2", "system": "rat Sprague-Dawley, plasma", "conditions": "intravenous, 1 mg/kg", "scale": "reference: female over male", "endpoint": "AUC(0-t) ratio", "result": 0.7}
{"Compound": "COc1ccnc(C(=O)N[C@H]2COC(=O)[C@H](Cc3ccccc3)[C@@H](O)[C@H](C)OC2=O)c1O", "assay": "aerobic dark soil incubation", "system": "clay loam soil", "conditions": "20 °C, persistence endpoint", "endpoint": "DT50", "result": "5.49 days"}
{"Compound": "CN(C)C(=O)c1cc2cnc(Nc3ccc(N4CCNCC4)cn3)nc2n1C1CCCC1", "system": "Sprague-Dawley rat, plasma", "endpoint": "fraction unbound", "result": "~0.72"}
{"Compound": "CS(=O)(=O)c1ccc(-c2nc3ccccc3n2CC(=O)N/N=C/c2ccc(Cl)cc2)cc1", "system": "rat, stomach", "conditions": "concentration not given, 4 h", "endpoint": "ulcer number", "result": 1}
{"Compound": "COCCOc1cnc2ccn([C@H](C)c3nnc4c(F)cc(-c5cnn(C)c5)cn34)c(=O)c2c1", "system": "patients, plasma", "conditions": "oral, 100 mg twice daily, day 1 predose, 200 per day", "endpoint": "Ctrough", "result": "1580 ng/mL"}
{"Compound": "CO[C@H]1C[C@@H]2CC[C@@H](C)[C@@](O)(O2)C(=O)C(=O)N2CCCC[C@H]2C(=O)O[C@H]([C@H](C)C[C@@H]2CC[C@@H](OC(=O)NCCOCCOCCOCCOCCOCCOCCOCCOCCC(=O)N3CCc4cc(Cn5nc(-c6ccc7oc(N)nc7c6)c6c(N)ncnc65)ccc4C3)[C@H](OC)C2)C[C@@H](O)[C@H](C)/C=C(\\C)[C@@H](O)[C@@H](OC)C(=O)[C@H](C)C[C@H](C)/C=C/C=C/C=C/1C", "system": "human, plasma", "conditions": "intravenous, 3 mg, cycle 1 day 15, arithmetic mean", "endpoint": "Tmax", "result": "0.75 h"}
{"Compound": "Cc1cc(NC2CCN(C(=O)OC3CCN(C(=O)/C=C/CN(C)C)C3)CC2)n2ncc(C(C)C)c2n1 (stereo not shown)", "assay": "Phase I dose escalation CTCAE v4.0, refers to: peripheral oedema", "system": "patients with advanced solid tumours", "conditions": "dose not given, QD dosing any grade", "endpoint": "patients with adverse event", "result": "12%"}
{"Compound": "Cc1ccc([C@@H]2O[C@H](CO)[C@@H](O)[C@H](O)[C@H]2O)cc1Cc1ccc(-c2ccc(F)cc2)s1", "system": "Japanese type 2 diabetes patients", "conditions": "100 mg, day 6, 24 h urine collection", "scale": "reference: baseline", "endpoint": "urinary calcium excretion change", "result": "-31.1 mg"}
{"Compound": "NC1(C(=O)N[C@@H](CCO)c2ccc(Cl)cc2)CCN(c2nc[nH]c3nccc2-3)CC1", "assay": "LC-MS/MS, non-compartmental", "system": "human patients, plasma", "conditions": "160/320 mg cohort, cycle 2, geometric mean, added: enzalutamide", "endpoint": "Tmax", "result": "2.5 h"}
{"Compound": "CCOc1c([C@H](C)n2nc(C)c3c(N)ncnc32)cc(Cl)c(F)c1[C@@H]1CNC(=O)C1", "assay": "ECG", "system": "previously treated B-cell malignancy patients", "conditions": "oral, 15 mg once daily, baseline QTcF ≤450 ms", "endpoint": "observations QTcF >450 ≤480 ms", "result": "0%"}
{"Compound": "Cc1ccccc1-c1ccc([C@H]2[C@@H]3CN(Cc4ccncc4)C[C@H]2N3)cc1", "target or system": "IDE", "assay": "enzyme activity, inhibitor, fluorogenic kinetic", "conditions": "added: Mca-RPPGFSAFK(Dnp)-OH substrate", "endpoint": "EC50", "result": "2200 nM"}
{"Compound": "O=C(Nc1nc2cccc(-c3ccc(CN4CCS(=O)(=O)CC4)cc3)n2n1)C1CC1", "assay": "refers to: blood amylase increased", "system": "rheumatoid arthritis patients", "conditions": "oral, 150 mg once daily, 4 weeks, any relatedness", "endpoint": "treatment-emergent adverse events", "result": "0%"}
{"Compound": "FC(F)(F)c1ccc(CNc2ccc(Cc3c[nH]c4ncc(Cl)cc34)cn2)cn1", "assay": "refers to: Arthralgia", "system": "patients with advanced solid tumours, non-TGCT cohort", "conditions": "oral, 1000 mg/day, any grade", "endpoint": "treatment-related adverse events", "result": "0%"}
{"Compound": "Nc1ncnc2c1ncn2[C@H]1C[C@@H]2OP(=O)(O)OC[C@H]3O[C@@H](n4cnc5c(N)ncnc54)C[C@@H]3OP(=O)(O)OC[C@H]2O1", "system": "non-tumor-bearing mice, serum", "conditions": "intravenous, 1 mg/kg, toxicity study", "endpoint": "total protein", "result": "51.7 ± 4.66 g/L"}
{"Compound": "C=CC(=O)Nc1cc(Nc2nccc(-c3cn(C4CC4)c4ccccc34)n2)c(OC)cc1N(C)CCN(C)C", "system": "BALB/c nude mice, LU0387 xenograft, serum", "conditions": "oral, 40 mg/kg", "endpoint": "total protein", "result": "49.2 ± 5.08 g/L"}
{"Compound": "Cn1cc(Nc2nccc(-c3ccc4c(c3)CN(C3COC3)CC[C@H]4NC(=O)c3cn(C(C)(C)C)nn3)n2)cn1", "system": "human, whole blood", "conditions": "300 mg twice daily, day 7", "scale": "reference: pre-dose baseline", "endpoint": "plasmablast count change", "result": "198%"}
{"Compound": "COc1cc2nccc(Oc3ccc(NC(=O)c4cc5c(n(-c6ccccc6)c4=O)CCCC5=O)nc3)c2cc1OC", "system": "human, relapsed/refractory AML", "conditions": "oral, 3 mg once daily, grade ≥3, any causality", "endpoint": "patients with febrile neutropenia", "result": "20%"}
{"Compound": "CNCc1ccc(-c2[nH]c3cc(F)cc4c3c2CCNC4=O)cc1", "system": "patients", "conditions": "oral, 240 mg twice daily, all grades", "endpoint": "any adverse event incidence", "result": "100%"}
{"Compound": "C1=C/COCc2cc(ccc2OCCN2CCCC2)Nc2nccc(n2)-c2cccc(c2)COC/1", "system": "BALB/c mice, rhEPO-induced polycythemia", "conditions": "120 mg/kg, day 3", "endpoint": "body weight", "result": "19.3 g and 18.1 g and 18.6 g and 19.1 g and 20.3 g and 18.5 g"}
{"Compound": "O=C(O)c1cccc(C(=O)O)c1", "system": "betaine/ethylene glycol DES-water", "conditions": "DES mass fraction 0.30", "endpoint": "apparent dissolution enthalpy", "result": "2.43 kcal/mol"}
{"Compound": "C=CC(=O)Nc1cc(Nc2nccc(-c3cn(C)c4ccccc34)n2)c(OC)cc1N(C)CCN(C)C", "assay": "storage stability", "system": "human dried blood spot samples", "conditions": "30 d, -80 °C, LQC level", "scale": "reference: nominal concentration", "endpoint": "percentage recovery", "result": "45.6%"}
{"Compound": "CC(C)(C(=O)N1CCOc2c(C#N)cncc2C1)C(F)F", "assay": "refers to: Lymphadenopathy", "system": "human", "conditions": "oral, 10 mg once daily, 14 days, multiple ascending dose", "endpoint": "subjects with adverse event", "result": "0%"}
{"Compound": "Cc1cccc(CNC(=O)c2cn(CCNC(=O)c3ccccc3S)c3cc4c(cc3c2=O)OC(F)(F)O4)n1", "system": "Sprague-Dawley rat, male, plasma", "conditions": "intravenous, 5 mg/kg of parent compound", "endpoint": "AUC(0-t)", "result": "143 ± 9.81 ng·h/mL"}
{"Compound": "CC(C)C(=O)O[C@H]1[C@H](C)OC(=O)[C@@H]1Cc1ccccc1", "system": "Staffordshire loam sediment, aerobic dark", "conditions": "20 °C", "endpoint": "DT50 whole system", "result": "0.58 days"}
{"Compound": "Cc1cccc(-c2ccc([C@@H]3[C@@H](CO)N4C/C=C\\CN(S(=O)(=O)c5cnc6n5CCCCC6)C[C@@H]34)cc2)c1C", "target or system": "IDE", "assay": "enzyme activity, inhibitor, fluorescence kinetic", "conditions": "added: Mca-RPPGFSAFK(Dnp)-OH substrate", "endpoint": "EC50", "result": "42 nM"}
{"Compound": "COc1ccc(C[C@@H](C)[C@@H](C)Cc2ccc(OC)c(OC)c2)cc1OC", "system": "beagle dog female, plasma", "conditions": "oral, 300 mg/kg/day, day 28", "endpoint": "AUC(0-t)", "result": "18100 ± 7470 ng·h/mL"}
{"Compound": "NCCONC(=O)[C@@H]1CC[C@@H]2CN1C(=O)N2OS(=O)(=O)O", "system": "human, male, urine", "conditions": "intravenous infusion, 1 g multiple doses, day 9", "scale": "reference: dose", "endpoint": "cumulative urinary excretion (0-24 h)", "result": "91.8%"}
{"Compound": "CC(C)c1nc(N(C)S(C)(=O)=O)nc(-c2ccc(F)cc2)c1/C=C/[C@@H](O)C[C@@H](O)CC(=O)O", "assay": "refers to: diarrhoea", "system": "healthy men", "conditions": "oral, dose not given, 8 days, treatment-emergent, crossover trial", "endpoint": "subjects with adverse event", "result": "0%"}
{"Compound": "COc1ccc2c(c1)CN(C(=O)CCN1CCC(Cc3ccccc3)CC1)CC[S@@+]2[O-]", "system": "rat plasma", "conditions": "1000 ng/mL", "endpoint": "fu", "result": 0.336}
{"note": "Excerpt of the above:"}
{"Compound": "COc1cc2nccc(Oc3ccc(NC(=O)c4cc5c(n(-c6ccccc6)c4=O)CCCC5=O)nc3)c2cc1OC", "system": "human, relapsed/refractory AML", "conditions": "oral, 3 mg once daily, grade ≥3, any causality", "endpoint": "patients with febrile neutropenia", "result": "20%"}
{"Compound": "CN(C)C(=O)c1cc2cnc(Nc3ccc(N4CCNCC4)cn3)nc2n1C1CCCC1", "system": "Sprague-Dawley rat, plasma", "endpoint": "fraction unbound", "result": "~0.72"}
{"Compound": "O.O.O.O.O.O.[Co+2]", "assay": "differential pulse voltammetry", "conditions": "aqua ion", "scale": "reference: NHE", "endpoint": "peak potential", "result": "1.82 V"}
{"Compound": "CCc1nc(C(N)=O)c(Nc2ccc(N3CCC(N4CCN(C)CC4)CC3)c(OC)c2)nc1NC1CCOCC1", "system": "Japanese patients, plasma and urine", "conditions": "oral, 200 mg, cycle 1 day 28, multiple doses, median", "endpoint": "renal clearance", "result": "19.7 mL/min"}
{"Compound": "CC(C)C(=O)O[C@H]1[C@H](C)OC(=O)[C@@H]1Cc1ccccc1", "system": "Staffordshire loam sediment, aerobic dark", "conditions": "20 °C", "endpoint": "DT50 whole system", "result": "0.58 days"}
